Results gathered from unrelated publications.
Compare with care: the assays were run in different laboratories. ± gives the spread as reported.

For Cc1cc(N2CCC(CO)(C3CC3)C2=O)cc(C(=O)NCc2cc(F)cc(-c3cnn(C)c3)c2)n1 (centres unmarked), the IC50 was 245 nM (Plasmodium falciparum; parasite growth; conditional knockdown control line; 72 h, added: 12.5 nM anhydrotetracycline).
COc1cccc2c(-c3ccc(O)c4c3C[C@@H](C)N[C@@H]4C)c(C)cc(O)c12 has an IC50 of 41.5 nM (Plasmodium falciparum; parasite growth, SYBR Green; NF54; blood stage).
Nc1nc(-c2ccccc2)nc2[nH]nc(Nc3ccc(F)c(F)c3F)c12 has an IC50 of 10 nM (rhinovirus B42; viral cytopathic effect; HeLa).
For COc1cccc2c(-c3ccc(O)c4c3CCN=C4)ccc(OC(C)C)c12, the IC50 was 163 ± 33 nM (Plasmodium falciparum; asexual parasite proliferation, SYBR Green I fluorescence; K1).
For Cc1cc(N2CC[C@@](C#N)(C3CC3)C2=O)cc(NC(=O)Cc2ccccc2)n1, the IC50 was 48 nM (Plasmodium falciparum; parasite growth; conditional knockdown control line; 72 h, added: 12.5 nM anhydrotetracycline).
For Cc1ccc(Nc2n[nH]c3nc(-c4ccccc4)nc(N)c23)cc1, the IC50 was 300 nM (coxsackievirus B3; viral cytopathic effect; HeLa).
For O=C(CCCCCONC(=O)c1nc(-c2ccc(O)cc2)cs1)NO, the IC50 was 24 nM (Plasmodium berghei; parasite growth, bioluminescence; HC04, ANKA GFP-Luc, liver stage).
The IC50 of COCCN(C)CC(=O)NC(Cc1ccc(-c2ccccc2)cc1)B(O)O (centres unmarked) is reported as 260 nM (Plasmodium berghei; liver schizont biomass; HepG2, liver stage; 48 h).
The IC50 of CC1=N[C@H](C)Cc2c(-c3ccc(C)cc3)ccc(O)c21 is reported as 210 ± 48 nM (Plasmodium falciparum; asexual parasite proliferation, SYBR Green I fluorescence; 7G8).
Nc1nc(-c2ccccc2)nc2[nH]nc(Nc3ccc(Cl)cc3)c12 has an IC50 of 10 nM (rhinovirus B42; viral cytopathic effect; HeLa).
For COc1cccc2c(-c3ccc4c(c3O)[C@@H](C)N[C@H](C)C4)c(CO)cc(OC)c12, the IC50 was 4.6 ± 0.53 nM (Plasmodium falciparum; asexual parasite proliferation, SYBR Green I fluorescence; clinical isolate SB_05, Mozambique).
The IC50 of Nc1nc(-c2ccccc2)nc2[nH]nc(Nc3ccc(F)cc3)c12 is reported as 30 nM (rhinovirus B42; viral cytopathic effect; HeLa).
Oc1ccc(-c2ccc(O)c3ccccc23)c2c1C=NCC2 gave an IC50 of 1140 ± 140 nM (Plasmodium falciparum; asexual parasite proliferation, SYBR Green I fluorescence; HB3).
With Nc1nc(-c2ccccc2)nc2[nH]nc(Nc3cccc(C(F)(F)F)c3)c12 the IC50 was 10 nM (coxsackievirus B3; viral cytopathic effect; HeLa).
COc1cc2c(c(OC)c1)C(C)=[N+](c1ccc(OC)c3c(OC)cc(C)cc13)[C@@H](C)C2 gave an IC50 of 416 ± 62 nM (Plasmodium falciparum; asexual parasite proliferation, SYBR Green I fluorescence; HB3).
COc1cncc(-c2cc(F)cc(CNC(=O)c3cc(N4CC[C@@](C#N)(C5CC5)C4=O)cc(C)n3)c2)c1 has an IC50 of 274 nM (Plasmodium falciparum; parasite growth; conditional knockdown control line; 120 h, added: 3 nM anhydrotetracycline).
With CCOC(=O)/C=C/[C@H](C[C@@H]1CCNC1=O)NC(=O)[C@@H](CC(=O)[C@@H](NC(=O)c1cc(C)on1)C(C)C)Cc1ccc(F)cc1 the IC50 was 13 nM (rhinovirus C11a-mGL; viral replication, high-content imaging).
COC1C=COC2(C)Oc3c(C)c(O)c4c(c3C2=O)C2=NC3(CCN(CC(C)C)CC3)NC2=C(NC(=O)C(C)=CC=CC(C)C(O)C(C)C(O)C(C)C(OC(=O)Nc2cnccn2)C1C)C4=O (centres unmarked) has an IC50 of 25 nM (Mycobacteroides abscessus; intracellular growth, Hill fit; THP-1 derived macrophages, ATCC 19977).
The IC50 of Nc1nc(-c2ccccc2)nc2[nH]nc(Nc3ccc([N+](=O)[O-])cc3)c12 is reported as 40 nM (rhinovirus B42; viral cytopathic effect; HeLa).
For CNCc1ccc2c(c1)C[C@H](CNC(=N)N)[C@H]2NC(=O)C(=O)Nc1ccc(Cl)c(F)c1, the IC50 was 3780 nM (HIV-1; pseudovirus infection, Env pseudovirus neutralisation; TZM-bl, clade B T/F isolate d15_410_787).
For COc1cccc2c(-c3ccc(O)c4c3CCNC4)ccc(O)c12, the IC50 was 463.9 ± 0.85 nM (Plasmodium falciparum; asexual parasite growth, SYBR Green I; clinical isolate SB_04, Malawi).
With CN(C)c1nc(-c2ccccc2)nc2[nH]nc(Nc3ccc(F)cc3)c12 the IC50 was 8120 nM (rhinovirus B42; viral cytopathic effect; HeLa).
CSCC[C@@H](N)C(=O)N[C@@H](CC(C)C)C(=O)N[C@@H](CCCNC(=N)N)C(=O)N[C@@H](Cc1c[nH]c2ccccc12)C(=O)N[C@@H](CO)C(=O)N[C@@H](CCCNC(=N)N)C(=O)N[C@@H](CCCCN)C(=O)N[C@@H](CCSC)C(=O)N1CCC[C@H]1C(=O)N[C@@H](CS)C(=O)N[C@H](C(=O)N[C@@H](CO)C(=O)O)C(C)C gave an IC50 of 489 nM (Human immunodeficiency virus 1; viral replication, inhibitor; TZM-bl).

Excerpt of the above:
Oc1ccc(-c2ccc(O)c3ccccc23)c2c1C=NCC2 gave an IC50 of 1140 ± 140 nM (Plasmodium falciparum; asexual parasite proliferation, SYBR Green I fluorescence; HB3).
With Nc1nc(-c2ccccc2)nc2[nH]nc(Nc3cccc(C(F)(F)F)c3)c12 the IC50 was 10 nM (coxsackievirus B3; viral cytopathic effect; HeLa).
COc1cc2c(c(OC)c1)C(C)=[N+](c1ccc(OC)c3c(OC)cc(C)cc13)[C@@H](C)C2 gave an IC50 of 416 ± 62 nM (Plasmodium falciparum; asexual parasite proliferation, SYBR Green I fluorescence; HB3).
COc1cncc(-c2cc(F)cc(CNC(=O)c3cc(N4CC[C@@](C#N)(C5CC5)C4=O)cc(C)n3)c2)c1 has an IC50 of 274 nM (Plasmodium falciparum; parasite growth; conditional knockdown control line; 120 h, added: 3 nM anhydrotetracycline).
